{"data": "Results of several laboratories", "note": "Parts stem from different laboratories: compare values within a part only."}
{"data": "Set 1", "target": "Histone acetyltransferase KAT6A, both winged helices, GST fusion (KAT6A, Homo sapiens, UniProt Q92794, residues 1-181)", "technique": "protein binding microarray", "molecule type": "double-stranded DNA, one strand shown", "medium": "in vitro", "tested at": "not given", "setting": "8-mer, flanks averaged, mean of 2 arrays, mostly near background", "relative to": "not given", "direction": "higher = stronger binding", "Construct (chain)": "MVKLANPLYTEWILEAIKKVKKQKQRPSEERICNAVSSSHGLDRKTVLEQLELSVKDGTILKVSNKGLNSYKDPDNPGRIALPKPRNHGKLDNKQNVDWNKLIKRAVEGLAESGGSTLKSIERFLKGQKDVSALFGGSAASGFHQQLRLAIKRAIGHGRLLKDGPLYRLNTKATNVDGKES"}
{"Sequence": "ATGGCACC", "E-score": 0.0531}
{"Sequence": "ACTGGCAT", "E-score": -0.25}
{"Sequence": "CCATCAAC", "E-score": -0.0926}
{"Sequence": "CTATCCGC", "E-score": 0.238}
{"Sequence": "TAACAAAA", "E-score": -0.0836}
{"Sequence": "GAAAAAGA", "E-score": -0.0817}
{"Sequence": "AGGTACCT", "E-score": -0.285}
{"Sequence": "CCACCTAA", "E-score": -0.181}
{"Sequence": "GGGGTTGA", "E-score": -0.0957}
{"data": "Set 2", "target": "RNA binding protein fox-1 homolog 2, RRM domain, GST-SBP tag (RBFOX2, Homo sapiens, UniProt O43251-10, residues 100-194)", "technique": "RNA Bind-n-Seq", "molecule type": "RNA", "medium": "in vitro", "tested at": "365 nM", "setting": "natural RNA segment, single round, ends assumed", "relative to": "no-protein control", "direction": "higher = stronger binding", "constant ends, left off below": "GGGAGUUCUACAGUCCGACGAUC … UGGAAUUCUCGGGUGCCAA", "Residues (chain)": "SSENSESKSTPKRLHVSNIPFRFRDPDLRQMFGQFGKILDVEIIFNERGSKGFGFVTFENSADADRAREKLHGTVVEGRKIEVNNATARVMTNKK"}
{"Sequence": "CGCUCUGCGGCUCCUCCCACCUCCAUCUUCUCCUAUCAUCGGGCUUAUUAUCCUCUCUCUUGGCUUCUCUCUUUCUGAUAUCAGUUCCUGAAGCCUCUCACUAACCCCUA", "RBNS enrichment (R)": 0.722}
{"Sequence": "GUAGCCUGAGCCCAAGGCCAGCCUGGGCUACCUAACAAGACCCUGUCUCUAAAAGAAAAAAGAAUUAACAUCUUAUUUUCUUAGAUUUUAAGAGAGAGUCUCUGGCAAGA", "RBNS enrichment (R)": 0.3}
{"Sequence": "AGAGAUGGGAUUUGGGGGUGAAUUUGUCAAUAUCUGGAUUUUAAUCCAGACAUCUCUGCUAACAAGCCUUUGGUAAGUCACUUCAGAUACUUUUCCUCCUUUUUACAAAG", "RBNS enrichment (R)": 0.481}
{"Sequence": "AGAAAGUACAGCUACUGUGCCUUGUGUUACUUAUUUACACAGUUAGCAGGCCUGGAAAUGAAUGGAACUAGUACUCCUGAGAAAUAAAUUGUAUAUCCCCCAAAUUAAAA", "RBNS enrichment (R)": 0.847}
{"Sequence": "AUAGACGAUUGACAUGGCACUGAUGGUCAGUUGCCCAGGGAGGCCGCUUACUCUGGAUGCAGAUGGCUGCUGCCGAUCCACUCUGUCUUUCUCGGGCUGCUUUUGCGUCG", "RBNS enrichment (R)": 0.525}
{"Sequence": "AGAGAAGUCUGCUUUGACUGCCUUGCCUGACCAAAUUAAAUAAAUAGUUGCCAGAUCUCUACUUUUAUCCUGCAUGGGAUAAUAUAUCUGUAAAUGCAUGAGUUUGGAAA", "RBNS enrichment (R)": 6.65}
{"Sequence": "AAUGAGUAAAUGGCUCACCAAUUUAUGCAUAGCCCUGCACAUGAGCAGAAUGUGACACUCAAAGCAUCCAUGCAGUACGCAUGUAACCUUGCACAGGAGUGGGGCUCUGG", "RBNS enrichment (R)": 2.13}
{"Sequence": "UUGGGUUUUGUUAUAGGCAUCAGUCUAACAAGUCAUUAGGUCACUCGGGAAGGGGGAAAAAGUUUAAAAUGGGGGAAAAAAAGCCAUCUUUUUAAACAAAAAUUAUUUUG", "RBNS enrichment (R)": 0.408}
{"Sequence": "UGGCCAUUUGCCUGGCUAGUUGCUGUCUACAAGGGAGCAUCAAAACAUCACUACUUCUUAUGUAACUUCUUCCAGCCAGUGCUUUUAUUGUUCGUUUUAGUUUACUGGGG", "RBNS enrichment (R)": 0.444}
{"Sequence": "CAGCUCCCAUGCCACAGAGGGACAGACCCCUGCUGUCCUGCCCUCUUGCCACUGGUGAGAGAAGGCCCUUGUCUCCUCAGACUAGGAGGUCUCCCACAGUGACAGCUCCU", "RBNS enrichment (R)": 0.197}
{"data": "Set 3", "target": "Sal-like protein 4, full length isoform A (SALL4, Homo sapiens, UniProt Q9UJQ4, residues 1-1053)", "technique": "universal PBM", "molecule type": "double-stranded DNA, one strand shown", "medium": "in vitro", "tested at": "600 nM", "setting": "8-mer, flanks averaged, mean of replicates", "direction": "higher = stronger binding", "sequence of UniProt Q9UJQ4 (whole entry, looked up)": "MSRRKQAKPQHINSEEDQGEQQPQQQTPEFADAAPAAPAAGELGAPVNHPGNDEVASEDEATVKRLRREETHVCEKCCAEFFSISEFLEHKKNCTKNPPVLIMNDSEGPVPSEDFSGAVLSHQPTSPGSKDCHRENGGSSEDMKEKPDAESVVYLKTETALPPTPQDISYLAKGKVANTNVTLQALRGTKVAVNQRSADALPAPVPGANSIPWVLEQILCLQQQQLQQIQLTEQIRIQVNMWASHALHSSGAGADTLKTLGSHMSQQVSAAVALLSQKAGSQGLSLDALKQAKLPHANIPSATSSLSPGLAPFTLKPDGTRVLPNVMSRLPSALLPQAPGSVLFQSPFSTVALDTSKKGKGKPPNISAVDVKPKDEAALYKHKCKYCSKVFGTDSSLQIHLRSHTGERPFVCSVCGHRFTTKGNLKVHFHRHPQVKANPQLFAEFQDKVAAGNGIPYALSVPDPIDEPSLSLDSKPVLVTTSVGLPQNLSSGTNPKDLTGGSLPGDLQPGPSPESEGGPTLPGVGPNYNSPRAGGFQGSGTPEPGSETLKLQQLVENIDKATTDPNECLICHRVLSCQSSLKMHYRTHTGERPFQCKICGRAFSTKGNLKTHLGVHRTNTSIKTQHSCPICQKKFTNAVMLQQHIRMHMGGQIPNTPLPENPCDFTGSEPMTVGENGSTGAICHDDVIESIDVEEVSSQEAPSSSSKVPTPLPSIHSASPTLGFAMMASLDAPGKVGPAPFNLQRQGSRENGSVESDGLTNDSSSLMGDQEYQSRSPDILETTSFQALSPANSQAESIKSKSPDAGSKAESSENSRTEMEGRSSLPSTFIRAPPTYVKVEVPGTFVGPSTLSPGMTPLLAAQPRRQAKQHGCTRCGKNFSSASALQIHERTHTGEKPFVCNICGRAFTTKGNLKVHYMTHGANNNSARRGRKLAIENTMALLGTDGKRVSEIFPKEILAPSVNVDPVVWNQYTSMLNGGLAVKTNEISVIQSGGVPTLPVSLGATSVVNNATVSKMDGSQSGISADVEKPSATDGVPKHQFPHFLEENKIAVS"}
{"Sequence": "GACATCGC", "E-score": -0.187}
{"Sequence": "ACGAACGC", "E-score": -0.119}
{"Sequence": "ACCGTGAG", "E-score": -0.246}
{"Sequence": "AAAGTAGA", "E-score": 0.173}
{"Sequence": "CATCTTTA", "E-score": 0.167}
{"Sequence": "ACTCCGGC", "E-score": -0.188}
{"Sequence": "ATATAAGG", "E-score": 0.235}
{"data": "Further values, each from its own experiment"}
{"Molecule": "PhoQ, residues 284 288 289 292 302 303 SLKLQV", "target": "PhoP, residues 12 14 15 18 19 LHHSG (Escherichia coli, UniProt P23836)", "assay": "Sort-seq, refers to: YFP reporter", "test system": "E. coli", "setting": "PhoQ-PhoP variant library, together with: 10 µM Mg2+", "scale": "relative to: high Mg2+ state, higher = stronger signaling", "quantity": "fold induction", "value": 0.801}
